# Measurements from different studies.
# Each line is one published result; not all experiments were run side by side.
Compound,species,route,dose,setting,LD50
C=CC(=O)Nc1cccc(Cn2ncc3cnc(Nc4cnn(CCOC)c4)nc32)c1,CD-1 mouse,oral,2 g/kg,single dose,> 2000 mg/kg
Cc1cc(/C=C/C#N)cc(C)c1Oc1nc(NC2CCN(Cc3ccc(S(C)(=O)=O)cc3)CC2)nc2ncccc12,Kunming mouse,oral,800 mg/kg,single dose,> 800 mg/kg
CC[C@H](C)[C@H](NC(=O)[C@H](C)NC(=O)[C@H](CCCCN)NC(=O)[C@H](CC(C)C)NC(=O)[C@@H](N)Cc1ccccc1)C(=O)N[C@@H](CCCCN)C(=O)N[C@@H](CCCCN)C(=O)N[C@@H](Cc1ccccc1)C(=O)NCC(=O)N[C@@H](CCCCN)C(=O)N[C@@H](CCC(=O)O)C(=O)N[C@@H](Cc1ccccc1)C(=O)N[C@@H](CCCCN)C(=O)N[C@@H](CCCCN)C(=O)N[C@H](C(=O)NCC(=O)N[C@@H](C)C(=O)N[C@@H](CCCCN)C(=O)N[C@@H](CC(C)C)C(=O)N[C@@H](CCCCN)C(=O)O)[C@@H](C)CC,BALB/c mouse,intraperitoneal,,single dose,150 mg/kg
CCCCn1c2ccccc2c2ccnc(-c3ccc(OC)cc3)c21,Kunming mouse,oral,,single dose,870 to 1430 mg/kg
Cc1cc(/C=C/C#N)cc(C)c1Oc1nc(NC2CCN(Cc3ccc(P(C)(C)=O)cc3)CC2)nc2ccsc12,Kunming mouse,oral,2000 mg/kg,,> 2000 mg/kg
C=C(C)C12OC3(c4ccccc4)OC1C1C(O)C(Br)(CO)C(O)C4(O)C(=O)C(C)=CC4C1(O3)C(C)C2OC(=O)c1ccccc1 (centres unmarked),Kunming mouse,intraperitoneal,,single dose,> 100 mg/kg
Cc1nccc2c3ccccc3n(Cc3cccnc3)c12,Kunming mouse,oral,,single dose,1120 to 2020 mg/kg
CC(=O)CC(=O)C1C[C@H](O)CCC1=O (some centres unmarked),mouse,oral,,single dose,2710 mg/kg

# Excerpt of the above:
Compound,species,route,dose,setting,LD50
Cc1cc(/C=C/C#N)cc(C)c1Oc1nc(NC2CCN(Cc3ccc(S(C)(=O)=O)cc3)CC2)nc2ncccc12,Kunming mouse,oral,800 mg/kg,single dose,> 800 mg/kg
